Experimental data of several laboratories.
Compare with care: the assays were run in different laboratories. ± gives the spread as reported.
Cell line: A549

`C[P+](c1ccccc1)(c1ccccc1)c1ccccc1` gave a GI50 of 1.32 µM (cell growth or viability, MTT; 72 h).
The selectivity ratio of `O=C1C=CC(=O)c2c(O)ccc(O)c21` is reported as 4.52 (cytotoxicity, MTT; reference: IC50 MRC5 over IC50 A549).
The EC50 of `CC(C)C[C@@H](NC(=O)[C@@H](C)NC(=O)[C@@H](CC(C)C)NC(=O)[C@@H](CCCCN)NC(=O)[C@H](N)CCCCN)C(=O)N[C@H](C)C(=O)N[C@H](CC(C)C)C(=O)N[C@H](C)C(=O)N[C@H](CCCCN)C(=O)N[C@H](CCCCN)C(=O)N[C@H](Cc1c[nH]c2ccccc12)C(=O)N[C@H](CC(C)C)C(=O)N[C@H](C)C(=O)N[C@H](CC(C)C)C(=O)N[C@H](C)C(=O)N[C@H](CCCCN)C(=O)N[C@H](CCCCN)C(=O)N[C@H](CC(C)C)C(=O)N[C@H](C)C(=O)N[C@H](CC(C)C)C(=O)N[C@H](C)C(=O)N[C@H](CC(C)C)C(=O)N[C@H](C)C(=O)N[C@H](CCCCN)C(=O)N[C@H](CCCCN)C(N)=O` is reported as 5.23 ± 0.35 µM (cytotoxicity, MTT; four hours, 37 °C, serum-free medium).
For `CCOP(=O)(OCC)OCCCCOC(=O)CC1=C(C)C(=Cc2ccc([S+](C)[O-])cc2)c2ccc(F)cc21` (stereo not shown), the IC50 increase was 50% (cell viability; together with: 3-methyladenine 5 mM; reference: without 3-methyladenine).
For `COc1cc(C)c(OC)c2c1OCO2`, the GI50 was greater than 250 µM (cell growth or viability, MTT; 72 h).
With `CCCCCCCC(=O)SCCC=CC1CC(=O)NCc2nc(cs2)C2=NC(C)(CS2)C(=O)NC(C(C)C)C(=O)O1` (stereo not shown) the GI50 was greater than 10 µM (cell growth or viability).
For `CC1=CC[C@]2(C(=O)O[C@H]3OC[C@@H](O)[C@@H](O)[C@@H]3OS(=O)(=O)O)CC[C@]3(C)C(CCC4[C@@]5(C)CC[C@H](O)C(C)(C)C5CC[C@]43C)C2[C@H]1C` (stereo partly shown), the necrotic cells was 4.6 fold (annexin V/PI flow cytometry; concentration not given, 48 h; reference: untreated).
With `CCCc1cc(OC)c2c(c1OC)OCO2` the GI50 was greater than 250 µM (cell growth or viability, MTT; 72 h).
The selectivity index of `Cc1[nH]c(=O)c(CNC(=O)c2ccc(C(F)(F)F)nc2)c2c1CCCC2` is reported as greater than 111 (MTT; reference: A549 IC50 over M. tuberculosis MIC).
The GI50 of `COc1cc(C)c(OC)c(OC)c1OC` is reported as greater than 250 µM (cell growth or viability, MTT; 72 h).
For `CC(C)[C@H]1NC(=O)[C@H](CO)NC(=O)c2cc3cc(c2)C(=O)NC[C@H](NC(=O)[C@H](Cc2c[nH]cn2)NC(=O)[C@H](Cc2ccc(C(F)(F)P(=O)(O)O)cc2)NC(=O)[C@@H]2CCCN2C1=O)C(=O)N[C@@H](Cc1ccccc1)C(=O)N[C@@H](Cc1ccc2ccccc2c1)C(=O)N[C@@H](CCCNC(=N)N)C(=O)N[C@@H](CCCNC(=N)N)C(=O)N[C@@H](CCCNC(=N)N)C(=O)N[C@@H](CCCNC(=N)N)C(=O)N[C@H](C(=O)N[C@@H](CCCCN)C(N)=O)CNC3=O`, “concentration of effect reversal” read greater than 1 µM (tyrosine phosphorylation, anti-pY immunoblot; 2 h).
`CCC[P+](c1ccccc1)(c1ccccc1)c1ccccc1` gave a GI50 of 0.971 µM (cell growth or viability, MTT; 72 h).
The IC50 of `CCOC12C(O)C(OC)C3(O)CC(C1C3OC(=O)c1ccccc1)C13C(OC)CCC4(COC)CN(CC)C1C2C(OC)C43` (stereo not shown) is reported as 12.6 µM (cell growth or viability, MTT).
The EC50 of `Cc1cccc(-c2cccc(C)n2)n1.[Cl-].[Cl-].[Ru+2].c1ccc(-c2ccccn2)nc1.c1ccc(-c2ccccn2)nc1` is reported as greater than 300 µM (cell growth or viability; 72 h, dark).
`COc1ccccc1/C=C1\SC(=O)N(CC(=O)Nc2ccc(C(=O)Nc3ccc([N+](=O)[O-])cc3)cc2)C1=O` gave a selectivity index of 16.4 (MTT; reference: IC50 Vero over IC50 A549).
For `CCCCCCCCC=CCCCCCCCC(=O)OC(COC(=O)Cc1c(C)n(C(=O)c2ccc(Cl)cc2)c2ccc(OC)cc12)COP(=O)([O-])OCC[N+](C)(C)C` (stereo not shown), the selectivity index was 4.31 (SRB; reference: MCF-10A IC50 over A549 IC50).
For `CCCCCCCCCCCC[C@@H](O)[C@H]1CC[C@H]([C@H](O)CCCCCCCCCCCCCCC2=C[C@H](C)OC2=O)O1`, the apoptotic cells was 15% (Annexin V/7-AAD flow cytometry; concentration not given, highest level).
The EC50 of `CC(C)C[C@@H](NC(=O)[C@@H](C)NC(=O)[C@@H](CCCCN)NC(=O)[C@H](N)CCCCN)C(=O)N[C@H](C)C(=O)N[C@H](CCCCN)C(=O)N[C@H](C)C(=O)N[C@H](CC(C)C)C(=O)N[C@H](CCCCN)C(=O)N[C@H](Cc1c[nH]cn1)C(=O)N[C@H](Cc1c[nH]c2ccccc12)C(=O)N[C@H](CC(C)C)C(=O)N1CCC[C@@H]1C(=O)N[C@H](C)C(=O)N[C@H](CC(C)C)C(=O)N[C@H](Cc1c[nH]cn1)C(=O)N[C@H](CCCCN)C(=O)N[C@H](CC(C)C)C(=O)N[C@H](C)C(=O)N[C@H](CCCCN)C(=O)N[C@H](C)C(=O)N[C@H](CC(C)C)C(=O)N[C@H](C)C(=O)N[C@H](CCCCN)C(=O)N[C@H](CCCCN)C(N)=O` is reported as 6.5 ± 0.37 µM (cytotoxicity, MTT; four hours, 37 °C, serum-free medium).
The GI50 of `CCCCCCCCCCCCCCCC[P+](c1ccccc1)(c1ccccc1)c1ccccc1` is reported as 0.728 µM (cell growth or viability, MTT; 72 h).
The EC50 of `CC(C)C[C@@H](NC(=O)[C@H]1CCCN1C(=O)[C@@H](CC(C)C)NC(=O)[C@@H](Cc1c[nH]c2ccccc12)NC(=O)[C@@H](CCCCN)NC(=O)[C@@H](CCCCN)NC(=O)[C@@H](C)NC(=O)[C@@H](CC(C)C)NC(=O)[C@@H](C)NC(=O)[C@@H](CC(C)C)NC(=O)[C@@H](C)NC(=O)[C@@H](CC(C)C)NC(=O)[C@@H](CCCCN)NC(=O)[C@H](N)CCCCN)C(=O)N[C@H](C)C(=O)N[C@H](CCCCN)C(=O)N[C@H](CCCCN)C(=O)N[C@H](CC(C)C)C(=O)N[C@H](C)C(=O)N[C@H](CC(C)C)C(=O)N[C@H](C)C(=O)N[C@H](CC(C)C)C(=O)N[C@H](C)C(=O)N[C@H](CCCCN)C(=O)N[C@H](CCCCN)C(N)=O` is reported as 3.11 ± 0.57 µM (cytotoxicity, MTT; four hours, 37 °C, serum-free medium).
`COc1cc(/C=C(\C#N)C(=O)Nc2nnc(C(F)(F)F)s2)ccc1OC(=O)N1CCN(C(=O)CCCC(=O)NCCCC[C@@H]2NC(=O)[C@@H](Cc3ccc(O)cc3)NC(=O)[C@H](CC(=O)O)NC(=O)CNC(=O)[C@H](CCCNC(=N)N)NC2=O)CC1` has a GI50 of 32 µM (cell growth or viability, MTT).
With `CCCc1cc(OC)c(OC)c(OC)c1OC` the GI50 was greater than 250 µM (cell growth or viability, MTT; 72 h).
`COc1ccc(NC(=O)c2ccc(NC(=O)CN3C(=O)S/C(=C\c4ccccc4OC)C3=O)cc2)cc1` gave a selectivity index of 4.97 (MTT; reference: IC50 Vero over IC50 A549).
`COc1cc(C)cc2c1OCO2` gave a GI50 of 12.8 µM (cell growth or viability, MTT; 72 h).
`CC(C)C(O)C(NC(=O)[C@H](Cc1ccc(O)cc1)NC(=O)C(Cc1ccc(O)c(Cl)c1)[N+](C)(C)C)C(=O)N[C@@H](C)C(=O)O` (stereo partly shown): antiproliferative activity “inactive” (100 µM).

Excerpt of the above:
The IC50 of `CCOC12C(O)C(OC)C3(O)CC(C1C3OC(=O)c1ccccc1)C13C(OC)CCC4(COC)CN(CC)C1C2C(OC)C43` (stereo not shown) is reported as 12.6 µM (cell growth or viability, MTT).
The EC50 of `Cc1cccc(-c2cccc(C)n2)n1.[Cl-].[Cl-].[Ru+2].c1ccc(-c2ccccn2)nc1.c1ccc(-c2ccccn2)nc1` is reported as greater than 300 µM (cell growth or viability; 72 h, dark).
